# Assay results collected from several papers.
# Amino acid sequences for entries named in this document (tags omitted). Residues count along the entry.
# UniProt P9WPP7, whole entry: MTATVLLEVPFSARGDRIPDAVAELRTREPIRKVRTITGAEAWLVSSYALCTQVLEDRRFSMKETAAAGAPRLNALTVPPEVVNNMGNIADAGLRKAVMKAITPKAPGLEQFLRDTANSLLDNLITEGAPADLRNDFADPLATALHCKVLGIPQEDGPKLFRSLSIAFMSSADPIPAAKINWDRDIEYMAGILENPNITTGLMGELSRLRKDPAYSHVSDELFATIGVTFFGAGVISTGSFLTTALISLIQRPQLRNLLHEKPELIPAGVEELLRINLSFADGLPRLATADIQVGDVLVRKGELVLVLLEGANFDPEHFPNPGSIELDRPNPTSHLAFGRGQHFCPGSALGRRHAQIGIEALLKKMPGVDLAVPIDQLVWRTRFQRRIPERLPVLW
# UniProt P00533, whole entry, looked up: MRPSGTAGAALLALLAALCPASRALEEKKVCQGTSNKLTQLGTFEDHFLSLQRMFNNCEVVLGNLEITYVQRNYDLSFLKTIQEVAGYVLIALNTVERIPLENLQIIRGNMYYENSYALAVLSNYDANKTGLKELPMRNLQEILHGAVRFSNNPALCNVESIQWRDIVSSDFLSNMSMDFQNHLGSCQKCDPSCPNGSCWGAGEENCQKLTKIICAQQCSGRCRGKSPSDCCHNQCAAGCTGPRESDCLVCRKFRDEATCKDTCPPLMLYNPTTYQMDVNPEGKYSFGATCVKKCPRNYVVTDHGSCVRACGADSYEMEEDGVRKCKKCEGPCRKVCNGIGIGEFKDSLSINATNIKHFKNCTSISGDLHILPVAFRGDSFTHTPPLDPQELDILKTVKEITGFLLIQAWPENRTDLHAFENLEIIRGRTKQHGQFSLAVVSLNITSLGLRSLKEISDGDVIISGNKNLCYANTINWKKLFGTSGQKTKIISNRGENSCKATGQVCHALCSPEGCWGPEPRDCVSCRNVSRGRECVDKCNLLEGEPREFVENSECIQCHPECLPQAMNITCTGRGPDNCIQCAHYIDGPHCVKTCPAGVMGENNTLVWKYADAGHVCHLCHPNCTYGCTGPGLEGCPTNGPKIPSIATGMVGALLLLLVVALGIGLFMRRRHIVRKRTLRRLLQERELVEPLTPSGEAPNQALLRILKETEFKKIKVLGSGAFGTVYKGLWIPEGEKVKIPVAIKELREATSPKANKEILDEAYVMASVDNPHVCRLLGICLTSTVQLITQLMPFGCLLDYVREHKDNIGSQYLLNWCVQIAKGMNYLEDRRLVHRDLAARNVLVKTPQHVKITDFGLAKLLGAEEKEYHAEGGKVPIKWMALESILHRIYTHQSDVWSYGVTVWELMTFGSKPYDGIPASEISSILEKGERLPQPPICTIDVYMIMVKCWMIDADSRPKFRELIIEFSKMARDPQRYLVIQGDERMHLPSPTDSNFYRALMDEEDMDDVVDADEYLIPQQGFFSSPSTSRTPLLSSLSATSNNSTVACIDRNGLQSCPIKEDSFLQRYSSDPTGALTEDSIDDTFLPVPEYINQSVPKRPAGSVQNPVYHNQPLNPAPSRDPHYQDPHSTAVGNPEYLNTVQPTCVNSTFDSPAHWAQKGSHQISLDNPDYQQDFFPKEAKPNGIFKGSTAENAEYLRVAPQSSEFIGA
# UniProt P00433, 31-338 limits assumed: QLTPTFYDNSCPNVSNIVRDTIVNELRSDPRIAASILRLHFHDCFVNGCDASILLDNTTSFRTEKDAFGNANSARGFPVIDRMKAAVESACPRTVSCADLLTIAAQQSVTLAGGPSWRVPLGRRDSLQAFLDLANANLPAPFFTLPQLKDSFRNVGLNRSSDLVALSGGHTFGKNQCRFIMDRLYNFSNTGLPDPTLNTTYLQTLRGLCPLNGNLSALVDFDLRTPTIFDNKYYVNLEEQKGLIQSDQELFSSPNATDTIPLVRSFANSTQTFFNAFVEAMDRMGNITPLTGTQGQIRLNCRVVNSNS
# UniProt P71716, whole entry: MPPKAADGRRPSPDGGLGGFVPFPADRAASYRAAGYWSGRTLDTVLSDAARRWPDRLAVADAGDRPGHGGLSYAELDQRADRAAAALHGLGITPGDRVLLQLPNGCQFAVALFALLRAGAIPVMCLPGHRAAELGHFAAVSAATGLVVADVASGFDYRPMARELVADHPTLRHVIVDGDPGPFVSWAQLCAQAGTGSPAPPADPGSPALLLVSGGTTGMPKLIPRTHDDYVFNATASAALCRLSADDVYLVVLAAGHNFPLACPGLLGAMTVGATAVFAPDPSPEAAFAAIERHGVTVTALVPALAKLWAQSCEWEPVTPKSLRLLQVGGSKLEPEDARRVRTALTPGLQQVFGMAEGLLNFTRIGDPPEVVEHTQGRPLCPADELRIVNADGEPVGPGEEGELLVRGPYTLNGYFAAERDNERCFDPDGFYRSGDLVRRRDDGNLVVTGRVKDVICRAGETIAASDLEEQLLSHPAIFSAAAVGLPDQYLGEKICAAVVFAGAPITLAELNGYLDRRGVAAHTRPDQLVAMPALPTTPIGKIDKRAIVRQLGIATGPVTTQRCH
# UniProt Q8WSF8, 18-236 limits assumed: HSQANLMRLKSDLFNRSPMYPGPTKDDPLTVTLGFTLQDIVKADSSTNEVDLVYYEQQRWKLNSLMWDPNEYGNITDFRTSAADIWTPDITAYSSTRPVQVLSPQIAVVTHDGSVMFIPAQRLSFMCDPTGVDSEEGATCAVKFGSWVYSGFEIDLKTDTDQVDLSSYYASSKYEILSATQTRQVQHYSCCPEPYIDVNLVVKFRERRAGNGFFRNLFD
# UniProt Q8N3R9, 256-336 F318W limits assumed: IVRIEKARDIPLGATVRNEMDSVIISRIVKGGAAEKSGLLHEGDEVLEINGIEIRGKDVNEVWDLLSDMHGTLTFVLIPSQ
# Protocols differ between the studies behind these lines. ± gives the spread as reported.
# hly: hly (Listeria monocytogenes, UniProt P13128)
# cyp121: Mycocyclosin synthase (cyp121, Mycobacterium tuberculosis, UniProt P9WPP7)
Structure (SMILES),tested on,assay,test system,conditions,quantity,value
Cc1c([N+](=O)[O-])c(C)c([N+](=O)[O-])c(C(C)(C)C)c1[N+](=O)[O-],"EGFR (Homo sapiens, UniProt P00533)","binding, surface plasmon resonance",,extracellular domain,Kd,~259000 nM
CC(=O)NC1C(O)CC(OC(CO)C(O)C2OC(OC(CO)C(O)C3OC(OC4C(O)C(CO)OC(OC5C(CO)OC(O)C(O)C5O)C4O)(C(=O)O)CC(O)C3NC(C)=O)(C(=O)O)CC(O)C2NC(C)=O)(C(=O)O)OC1C(O)C(O)CO (stereo not shown),hly,binding,,pH 5.5,Kd,9.4 nM
Fc1ccc(-c2ccc3c(Cn4ccnc4)c[nH]c3c2)cc1,cyp121,binding,,,Kd,5900 ± 2000 nM
CC[C@H](C)[C@H](NC(=O)[C@H](Cc1ccccc1)NC(=O)[C@H](C)NC(=O)[C@H](CCCNC(=N)N)NC(=O)CNC(=O)CNC(=O)CNC(=O)CNC(=O)[C@H](CCSC)NC(=O)[C@H](Cc1ccc(O)cc1)NC(=O)[C@@H]1CCCN1C(=O)[C@@H](NC(=O)[C@H](C)NC(=O)[C@H](CO)NC(=O)[C@H](CO)NC(=O)[C@H](CC(C)C)NC(=O)[C@H](Cc1c[nH]c2ccccc12)NC(=O)[C@H](Cc1ccc(O)cc1)NC(=O)[C@H](Cc1c[nH]cn1)NC(=O)[C@H](CS)NC(=O)[C@H](CO)NC(=O)[C@H](Cc1ccc(O)cc1)NC(=O)[C@@H](N)CO)C(C)C)C(=O)N[C@@H](C)C(=O)N[C@@H](CO)C(=O)N[C@@H](CCCNC(=N)N)C(=O)N[C@@H](CCCNC(=N)N)C(=O)N[C@H](C(=O)N[C@@H](CCCNC(=N)N)C(=O)N[C@@H](CCCNC(=N)N)C(=O)N1CCC[C@H]1C(=O)O)[C@@H](C)CC,"PRXC1A (Armoracia rusticana, UniProt P00433)",peptide ELISA,synthetic peptide,"45 min, added: HRP from 200 nM",Kd,30 nM
O=C(NS(=O)(=O)OC[C@H]1O[C@@H](n2cnc3c(NCc4ccccc4)ncnc32)[C@H](O)[C@@H]1O)c1ccccc1O,"Salicyl-AMP ligase / salicyl-S-ArCP synthetase (Mycobacterium tuberculosis, UniProt P71716)",binding,,,Kd,136 ± 8 nM
O=C(NC1CCN(c2ncnc3[nH]cnc23)CC1)c1cccc(S(=O)(=O)Nc2ccc(Cl)cc2)c1,A549-ACE2,,,0.823 µM,viability,102%
CC(=O)NC1C(OC2C(CO)OC(OC3C(CO)OC(O)C(O)C3O)C(O)C2O)OC(CO)C(O)C1OC1OC(CO)C(O)C(O)C1O (stereo not shown),hly,binding,,pH 5.5,Kd,567 nM
Cc1ccccc1S(=O)(=O)Nc1cccc(C(=O)NC2CCN(c3ncnc4[nH]cnc34)CC2)c1,A549-ACE2,,,0.09145 µM,viability,105%
Cn1c(=O)cc(OCc2cn(C3C[C@H]4CC[C@@H](C3)[N+]4(C)C)nn2)c2ccccc21 (stereo partly shown),"Soluble acetylcholine receptor (Aplysia californica, UniProt Q8WSF8)","binding, scintillation proximity",,added: [3H]epibatidine,Kd,24 ± 6.8 nM
Fc1ccc(-c2cc(Cn3ccnc3)c3ccccc3c2)cc1,cyp121,binding,,,Kd,1300 ± 270 nM
CC(C)C[C@H](NC(=O)[C@H](CC(=O)O)NC(=O)[C@@H]1CCCN1C(=O)[C@@H](NC(=O)CNC(=O)[C@H](CCC(=O)O)NC(=O)[C@H](CO)NC(=O)[C@H](CO)NC(=O)[C@H](CC(N)=O)NS(=O)(=O)c1cccc2c(N(C)C)cccc12)C(C)C)C(=O)N[C@@H](CC(C)C)C(=O)N[C@H](C(=O)O)C(C)C,"Protein PALS1, PDZ domain (PALS1, Homo sapiens, UniProt Q8N3R9, F318W)",fluorescence titration,,"pH 7.2, 25 °C",Kd,130000 ± 10000 nM
CCC(c1ccc(-c2ccc(F)c(F)c2)c(F)c1)n1ccnc1 (stereo not shown),cyp121,binding,,,Kd,4600 ± 700 nM
NC[C@@H](NC[C@@H]1CCCN1C[C@@H](CO)NC[C@@H](NCCC1CC2CCC1C2)c1ccccc1)c1ccccc1 (stereo partly shown),Escherichia coli,bacterial growth,,compound alone,IC50,> 24000 nM
